Assay results gathered from unrelated publications.
Lines come from different studies, so protocols differ. Numbers after ± are the reported error.

`O=C(Nc1nc2c(ncn2C2OC(COP(=O)(O)O)C(O)C2O)c(=O)[nH]1)c1ccccc1` (stereo not drawn) has an IC50 of over 100 µM (Vero; cell growth or viability).
`CCN1CC2(COC)C(O)CC(OC)C34C5CC6(O)C(OC)C(O)C(O)(C5C6OC(=O)c5ccccc5)C(C(OC)C23)C14` (stereo not drawn) has an IC50 of 28.7 µM (HBE; cell growth or viability, MTT).
With `CC[C@H](C)[C@H](NC(=O)[C@H](CCCNC(=N)N)NC(=O)[C@H](CCCNC(=N)N)NC(=O)[C@H](CCCNC(=N)N)NC(=O)[C@@H](NC(=O)[C@@H](NC(=O)[C@H](C)NC(=O)[C@H](CCCNC(=N)N)NC(=O)[C@H](CCCNC(=N)N)NC(=O)[C@H](CCCNC(=N)N)NC(=O)[C@@H]1CCCN1C(=O)[C@@H](N)CCCNC(=N)N)[C@@H](C)O)[C@@H](C)O)C(=O)N[C@H](C(=O)N[C@H](C(=O)NCC(=O)N[C@H](C(=O)N[C@@H](CCCNC(=N)N)C(=O)N[C@@H](CCCNC(=N)N)C(=O)N[C@@H](CCCNC(=N)N)C(=O)N[C@@H](CCCNC(=N)N)C(N)=O)[C@@H](C)O)[C@@H](C)O)[C@@H](C)O` the IC50 was 92.8 ± 1.1 µM (BT-474; cell viability, CellTiter-Blue; 24 h, serum-free medium).
`CN(C)C(=O)C(NC(=O)c1ccccc1-c1ccc(C(F)(F)F)cc1)c1cccc(C(F)(F)F)c1` (stereo not drawn) gave an IC50 of 3 ± 1.1 µM (KHYG-1 with Ba/F3-MICA cells; NKG2D-mediated cell killing, inhibitor; 6 h).
With `CC(C)OC(=O)C(n1cccn1)n1cccn1.F[P-](F)(F)(F)(F)F.[Cu+].c1ccc(P(c2ccccc2)c2ccccc2)cc1` the IC50 was 6.6 µM (LoVo; cell growth or viability, MTT; 72 h).
`Cc1cc(C)c(N2CCN(c3c(C)cc(C)cc3C)C2=[Se])c(C)c1.[Cl][Ag]` has an IC50 of 1.6 ± 0.4 µM (human ovarian cancer cells; cell viability, MTT; 72 h).
The IC50 of `OC[C@H]1[C@@H](O)[C@@H](O)CN1Cc1ccccc1` is reported as over 200 µM (U2OS; cell growth or viability, MTS; 72 h).
The IC50 of `CCN1CC2(COC)CCC(OC)C34C5CC6(O)C(OC)C(O)C(O)(C5C6OC(=O)c5ccccc5)C(C(OC)C23)C14` (stereo not drawn) is reported as 24.1 µM (NCI-H460; cell growth or viability, MTT).
With `COC(=O)CC[C@@H](NC(=O)[C@@H](Cc1ccc(OP(=O)(O)O)cc1)NC(=O)[C@@H](Cc1ccccc1)NC(=O)[C@@H](Cc1ccccc1)NC(=O)Cc1ccc2ccccc2c1)C(=O)OC` the IC50 was over 200 µM (CHOK; cell viability; 72 h).
With `CNC(=O)c1cc(Oc2ccc(NC(=O)c3ccc(-c4ccc(OC(=O)CCC(=O)OC5OC6OC7(C)CCC8C(C)CCC(C5C)C68OO7)cc4)cn3)cc2)ccn1` (stereo not drawn) the IC50 was 46 µM (L02; cell growth or viability, MTT; 72 h).
`O=C(C[P+]([Au-][Cl])(c1ccccc1)c1ccccc1)[O][Ti+2][O]C(=O)C[P+]([Au-][Cl])(c1ccccc1)c1ccccc1.c1cc[cH-]c1.c1cc[cH-]c1` has an IC50 of 3.2 µM (A498; cell viability, XTT; 72 h).
With `CCOC12C(O)C(OC)C3(O)CC(C1C3OC(=O)c1ccccc1)C13C(OC)CCC4(COC)CN(CC)C1C2C(OC)C43` (stereo not drawn) the IC50 was 12.8 µM (NCI-H460; cell growth or viability, MTT).
With `CNC(=O)c1cc(Oc2ccc(NC(=O)c3cc(-c4ccccc4OC(=O)CCC(=O)OC4OC5OC6(C)CCC7C(C)CCC(C4C)C57OO6)ccn3)cc2)ccn1` (stereo not drawn) the IC50 was 42.7 µM (L02; cell growth or viability, MTT; 72 h).
The IC50 of `F[P-](F)(F)(F)(F)F.OCP(CO)CO.OCP(CO)CO.OCP(CO)CO.OCP(CO)CO.[Cu+]` is reported as 32.7 µM (MRC5; cell growth or viability, MTT; 72 h).
With `CCN1CC2(COC)CCC(OC)C34C5CC6C(OC)CC(O)(C5C6OC(=O)c5ccccc5)C(C(OC)C23)C14` (stereo not drawn) the IC50 was 34.1 µM (HBE; cell growth or viability, MTT).

Some of these lines once more:
The IC50 of `F[P-](F)(F)(F)(F)F.OCP(CO)CO.OCP(CO)CO.OCP(CO)CO.OCP(CO)CO.[Cu+]` is reported as 32.7 µM (MRC5; cell growth or viability, MTT; 72 h).
With `CC[C@H](C)[C@H](NC(=O)[C@H](CCCNC(=N)N)NC(=O)[C@H](CCCNC(=N)N)NC(=O)[C@H](CCCNC(=N)N)NC(=O)[C@@H](NC(=O)[C@@H](NC(=O)[C@H](C)NC(=O)[C@H](CCCNC(=N)N)NC(=O)[C@H](CCCNC(=N)N)NC(=O)[C@H](CCCNC(=N)N)NC(=O)[C@@H]1CCCN1C(=O)[C@@H](N)CCCNC(=N)N)[C@@H](C)O)[C@@H](C)O)C(=O)N[C@H](C(=O)N[C@H](C(=O)NCC(=O)N[C@H](C(=O)N[C@@H](CCCNC(=N)N)C(=O)N[C@@H](CCCNC(=N)N)C(=O)N[C@@H](CCCNC(=N)N)C(=O)N[C@@H](CCCNC(=N)N)C(N)=O)[C@@H](C)O)[C@@H](C)O)[C@@H](C)O` the IC50 was 92.8 ± 1.1 µM (BT-474; cell viability, CellTiter-Blue; 24 h, serum-free medium).
